Published values of several laboratories.
Organism: Enterococcus faecium

SMILES = CCCCCCC#Cc1cncc(-c2nnc(SCc3cc([N+](=O)[O-])cc([N+](=O)[O-])c3)n2C2CCNCC2)c1; assay = broth microdilution; system = ATCC 51559 MDR VRE; conditions = 18 to 24 h, 37 °C; MIC = 16 µg/mL
SMILES = CN[C@H](CC(C)C)C(=O)N[C@H]1C(=O)N[C@@H](CC(N)=O)C(=O)N[C@H]2C(=O)N[C@H]3C(=O)N[C@H](C(=O)N[C@H](C(=O)O)c4cc(O)cc(O)c4-c4cc3ccc4O)[C@H](O)c3ccc(c(Cl)c3)Oc3cc2cc(c3O[C@@H]2O[C@H](CO)[C@@H](O)[C@H](O)[C@H]2O[C@H]2C[C@](C)(N)[C@H](O)[C@H](C)O2)Oc2ccc(cc2Cl)[C@H]1O; system = VanB vancomycin-resistant; MIC = > 16 µg/mL
SMILES = CC[C@H](C)[C@H](NC(=O)CN)C(=O)NCC(=O)N[C@@H](CCCCN)C(=O)N[C@@H](Cc1ccccc1)C(=O)N[C@@H](CC(C)C)C(=O)N[C@@H](CCCCN)C(=O)N[C@@H](CCCCN)C(=O)N[C@@H](C)C(=O)N[C@@H](CCCCN)C(=O)N[C@@H](CCCCN)C(=O)N[C@@H](Cc1ccccc1)C(=O)NCC(=O)N[C@@H](CCCCN)C(=O)N[C@@H](C)C(=O)N[C@@H](Cc1ccccc1)C(=O)N[C@H](C(=O)N[C@@H](CCCCN)C(=O)N[C@H](C(=O)N[C@@H](CC(C)C)C(=O)N[C@@H](CCCCN)C(=O)N[C@@H](CCCCN)C(N)=O)[C@@H](C)CC)C(C)C; assay = broth dilution; system = KCTC 13225; MIC = 6.3 µM
SMILES = CS(=O)(=O)Nc1ncn(-c2cc(F)c(COc3ccc(OS(=O)(=O)F)cc3)c(F)c2)n1; MIC = > 50 µM
SMILES = Oc1c(Br)cc(Br)cc1-c1[nH]c(Br)c(Br)c1Br; system = ATCC 6569; MIC = 8 µM
SMILES = CN[C@H](CC(C)C)C(=O)N[C@H]1C(=O)N[C@@H](CC(N)=O)C(=O)N[C@H]2C(=O)N[C@H]3C(=O)N[C@H](C(=O)N[C@H](C(=O)O)c4cc(O)cc(O)c4-c4cc3ccc4O)[C@H](O)c3ccc(c(Cl)c3)Oc3cc2cc(c3O[C@@H]2O[C@H](CO)[C@@H](O)[C@H](O)[C@H]2O[C@H]2C[C@](C)(N)[C@H](O)[C@H](C)O2)Oc2ccc(cc2Cl)[C@H]1O; system = ATCC 700221 vancomycin-resistant; MIC = > 50 µg/mL
SMILES = CC[C@H](C)[C@H](NC(=O)[C@H](CC(C)C)NC(=O)[C@H](CCCNC(=N)N)NC(=O)[C@@H](N)CCCNC(=N)N)C(=O)N[C@@H](CCCNC(=N)N)C(=O)N[C@@H](CCCCN)C(=O)N[C@@H](CC(C)C)C(=O)N[C@@H](CCCCN)C(=O)NCC(=O)N1CCC[C@H]1C(=O)N[C@H](C(=O)N[C@H](C(=O)N[C@@H](Cc1ccc(O)cc1)C(=O)N[C@@H](CC(C)C)C(=O)N[C@@H](Cc1ccc(O)cc1)C(=O)N[C@@H](Cc1ccccc1)C(=O)N[C@@H](CCCCN)C(=O)N[C@@H](CC(C)C)C(=O)N[C@@H](CCC(N)=O)C(=O)N[C@@H](CC(C)C)C(=O)N[C@@H](CC(C)C)C(=O)N[C@@H](CCCCN)C(=O)N[C@@H](CCCCN)C(N)=O)[C@@H](C)CC)[C@@H](C)CC; system = ATCC 51559, vancomycin-resistant, Mueller-Hinton broth; conditions = 24 h; MIC = 16 µM
SMILES = CC(C)C[C@H](NC(=O)[C@@H](NC(=O)[C@H](CCCNC(=N)N)NC(=O)[C@H](CCC(N)=O)NC(=O)[C@H](Cc1ccccc1)NC(=O)[C@H](Cc1ccc(O)cc1)NC(=O)[C@H](CC(N)=O)NC(=O)[C@H](Cc1c[nH]c2ccccc12)NC(=O)[C@@H](NC(=O)[C@H](CCCNC(=N)N)NC(=O)[C@H](CCCCN)NC(=O)[C@@H](N)Cc1ccccc1)C(C)C)C(C)C)C(=O)N[C@H](C(=O)N[C@@H](CCCCN)C(=O)N[C@@H](CCCCN)C(N)=O)C(C)C; assay = broth dilution; system = KCTC 13225; MIC = 6.3 µM
SMILES = CC[C@H](C)[C@H](NC(=O)[C@H](CC(C)C)NC(=O)[C@H](CCCNC(=N)N)NC(=O)[C@@H](N)CCCNC(=N)N)C(=O)N[C@@H](CCCNC(=N)N)C(=O)N[C@H](C(=O)N[C@@H](CC(C)C)C(=O)N[C@H](C(=O)NCC(=O)N1CCC[C@H]1C(=O)N[C@H](C(=O)N[C@H](C(=O)N[C@@H](Cc1ccc(O)cc1)C(=O)N[C@@H](CC(C)C)C(=O)N[C@@H](Cc1ccc(O)cc1)C(=O)N[C@@H](Cc1ccccc1)C(=O)N[C@@H](CCCCN)C(=O)N[C@@H](CC(C)C)C(=O)N[C@@H](CCC(N)=O)C(=O)N[C@@H](CC(C)C)C(=O)N[C@@H](CC(C)C)C(=O)N[C@@H](CCCCN)C(=O)N[C@@H](CCCCN)C(N)=O)[C@@H](C)CC)[C@@H](C)CC)[C@@H](C)O)[C@@H](C)O; system = ATCC 51559, vancomycin-resistant, Mueller-Hinton broth; conditions = 24 h; MIC = 32 µM
SMILES = CCCCCCC#Cc1cncc(-c2nnc(SCc3ccc([N+](=O)[O-])cc3)n2CCCN)c1; assay = broth microdilution; system = ATCC 51559 MDR VRE; conditions = 18 to 24 h, 37 °C; MIC = 8 µg/mL
SMILES = Cc1ccc2[nH]c3c(c2c1)CCCC3NCCc1ccc(O)cc1 (stereo not shown); assay = broth microdilution; system = BM4147 vancomycin-resistant; MIC = 16 µg/mL
SMILES = CCCCCCCCCC(=O)N[C@@H](Cc1c[nH]c2ccccc12)C(=O)N[C@H](CC(N)=O)C(=O)N[C@@H](CC(=O)O)C(=O)N[C@@H]1C(=O)NCC(=O)N[C@@H](CCCN)C(=O)N[C@@H](CC(=O)O)C(=O)N[C@H](C)C(=O)N[C@@H](CC(=O)O)C(=O)NCC(=O)N[C@H](CO)C(=O)N[C@@H]([C@H](C)CC(=O)O)C(=O)N[C@@H](CC(=O)c2ccccc2N)C(=O)O[C@@H]1C; system = resistant isolate; conditions = 16 h, added: Ca2+ 1.0 mM; MIC = 8 µg/mL
SMILES = CC(C)C[C@@H](NC(=O)CNC(=O)[C@@H](CCCCN)NC(=O)[C@@H](CC(C)C)NC(=O)[C@@H](CCCCN)NC(=O)[C@@H](CCCNC(=N)N)NC(=O)[C@@H](CC(C)C)NC(=O)[C@@H](CC(C)C)NC(=O)[C@@H](CCCNC(=N)N)NC(=O)[C@H](N)CCCNC(=N)N)C(=O)N[C@H](CCCCN)C(=O)N[C@H](CCCCN)C(=O)N[C@H](Cc1ccc(O)cc1)C(=O)N[C@H](CC(C)C)C(=O)N[C@H](Cc1ccc(O)cc1)C(=O)N[C@H](Cc1ccccc1)C(=O)N[C@H](CCCCN)C(=O)N[C@H](CC(C)C)C(=O)N[C@H](CCC(N)=O)C(=O)N[C@H](CC(C)C)C(=O)N[C@H](CC(C)C)C(=O)N[C@H](CCCCN)C(=O)N[C@H](CCCCN)C(N)=O; system = ATCC 51559, vancomycin-resistant, Mueller-Hinton broth; conditions = 24 h; MIC = 0.5 µM
SMILES = CC[C@H](C)[C@H](NC(=O)[C@@H](NC(=O)[C@H](Cc1ccccc1)NC(=O)CNC(=O)[C@H](CCC(N)=O)NC(=O)[C@H](CCCCN)NC(=O)[C@H](C)N)C(C)C)C(=O)N[C@@H](Cc1ccc(O)cc1)C(=O)N[C@@H](CCCNC(=N)N)C(=O)N[C@H](C(=O)N[C@@H](CCCNC(=N)N)C(=O)N[C@H](C(=O)N[C@@H](CCCNC(=N)N)C(=O)N[C@@H](CCCNC(=N)N)C(=O)NCC(=O)N[C@@H](CC(N)=O)C(=O)N[C@@H](CCCNC(=N)N)C(=O)N[C@@H](CCCCN)C(N)=O)C(C)C)C(C)C; assay = broth dilution; system = KCTC 13225; MIC = > 100 µM
SMILES = CN[C@H](CC(C)C)C(=O)N[C@H]1C(=O)N[C@@H](CC(N)=O)C(=O)N[C@H]2C(=O)NC3C(=O)N[C@H](C(=O)N[C@H](C(=O)NCCC[N+](C)(C)C)c4cc(O)cc(O)c4-c4cc3ccc4O)[C@H](O)c3ccc(c(Cl)c3)Oc3cc2cc(c3OC2OC(CO)C(O)[C@H](O)[C@@H]2O[C@H]2CC(C)(NCc3ccc(-c4ccc(Cl)cc4)cc3)[C@H](O)[C@H](C)O2)Oc2ccc(cc2Cl)[C@H]1O (stereo partly shown); system = VanA VRE ATCC BAA-2317; conditions = added: LTA 100 µg/mL and Mg2+ 100 µg/mL; MIC = 5 µg/mL
SMILES = CCCCCCC#Cc1cncc(-c2nnc(SCc3cc(C(F)(F)F)cc(C(F)(F)F)c3)n2CCCN)c1; assay = broth microdilution; system = ATCC 51559 MDR VRE; conditions = 18 to 24 h, 37 °C; MIC = 8 µg/mL
